{"data": "Experimental data gathered from unrelated publications", "note": "Lines come from different studies, so protocols differ. ± gives the spread as reported."}
{"SMILES": "COc1ccc(C)cc1NC(=O)OC1CC2CCCC(C1)N2Cc1ccc(CC[18F])cc1 (centres unmarked)", "system": "BALB/c mice, EMT6 tumour, lung", "setting": "2 h", "tissue uptake": "4.98 ± 0.27 %ID/g"}
{"SMILES": "CCCC[C@H](NC(=O)CNC(=O)CNC(=O)CN1CCN(CC(=O)O)CCN(CC(=O)O)CCN(CC(=O)O)CC1)C(=O)N[C@H]1CC(=O)NCCCC[C@@H](C(N)=O)NC(=O)[C@H](Cc2c[nH]c3ccccc23)NC(=O)[C@H](CCCNC(=N)N)NC(=O)[C@@H](Cc2ccccc2)NC(=O)[C@H](Cc2c[nH]cn2)NC1=O [lead-203 labelled]", "assay": "biodistribution", "system": "C57 mice with B16/F1 melanoma, intestines", "setting": "intravenous, 0.056 MBq, 2 h post-injection", "tissue uptake": "1.25 ± 0.65 %ID"}
{"SMILES": "CCCC[C@H](NC(=O)CCOCCOCCNC(=O)CN1CCN(CC(=O)O)CCN(CC(=O)O)CCN(CC(=O)O)CC1)C(=O)N[C@H]1CC(=O)NCCCC[C@@H](C(N)=O)NC(=O)[C@H](Cc2c[nH]c3ccccc23)NC(=O)[C@H](CCCNC(=N)N)NC(=O)[C@@H](Cc2ccccc2)NC(=O)[C@H](Cc2c[nH]cn2)NC1=O [gallium-68 labelled]", "system": "C57BL/6J mice male B16-F10 tumour, muscle", "setting": "1 h post injection, unblocked", "tissue uptake": "0.1 %ID/g"}
{"SMILES": "C[C@]12CC[C@H](OCC[18F])C[C@H]1CC[C@@H]1[C@@H]2CC[C@]2(C)[C@@H](c3ccc(=O)oc3)CC[C@]12O", "system": "male BALB/c nude mice, HepG2 xenograft, kidney", "setting": "intravenous, 7.4 MBq, 45 min", "tissue uptake": "7.17 ± 0.34 %ID/g"}
{"SMILES": "NC(=O)[C@@H](CCCCNC(=O)CNC(=O)CCC(=O)NCCc1c[nH]cn1)NC(=O)[C@@H](Cc1ccc(O)cc1)NC(=O)[C@@H](CCCCNC(=O)CNC(=O)CCC(=O)NCCc1c[nH]cn1)NC(=O)Cc1ccc(CN2CCN(CC(=O)O)CCN(CC(=O)O)CC2)cc1 [fluorine-18 labelled]", "system": "tumour-bearing nude mice, bone", "setting": "intravenous, 1.04 MBq, 3 h, no pretargeting", "tissue uptake": "0.08 ± 0.03 %ID/g"}
{"SMILES": "C[S]1CC[S]2CC[P](CO)(CO)[99Tc+]12.[C-]#[O+].[C-]#[O+].[C-]#[O+]", "system": "CF-1 mice, female, urine", "setting": "intravenous, 4 h", "tissue uptake": "37.4 %ID"}
{"SMILES": "CCCC[C@H](NC(=O)CN1CCC(NC(=O)CN2CCC(NC(=O)CN3CCN(CC(=O)O)CCN(CC(=O)O)CCN(CC(=O)O)CC3)CC2)CC1)C(=O)N[C@H]1CC(=O)NCCCC[C@@H](C(N)=O)NC(=O)[C@H](Cc2c[nH]c3ccccc23)NC(=O)[C@H](CCCNC(=N)N)NC(=O)[C@@H](Cc2ccccc2)NC(=O)[C@H](Cc2c[nH]cn2)NC1=O [gallium-68 labelled]", "system": "C57BL/6J mice male B16-F10 tumour, lungs", "setting": "1 h post injection, unblocked", "tissue uptake": "0.5 ± 0.1 %ID/g"}
{"SMILES": "COc1cc(C(=O)NCCOCCOCCOCCNC(=O)c2ccc([18F])nc2)ccc1NC(=O)C1NC(CC(C)(C)C)C(C#N)(c2ccc(Cl)cc2F)C1c1cccc(Cl)c1F (centres unmarked)", "system": "athymic male mice, HepG2 xenograft, large intestine", "setting": "2 h", "tissue uptake": "16.3 ± 2.63 %ID/g"}
{"note": "A few entries again:"}
{"SMILES": "C[S]1CC[S]2CC[P](CO)(CO)[99Tc+]12.[C-]#[O+].[C-]#[O+].[C-]#[O+]", "system": "CF-1 mice, female, urine", "setting": "intravenous, 4 h", "tissue uptake": "37.4 %ID"}
